Results collected from several papers.
A part holds a random share of what one study measured.

Set 1 — technique: universal PBM; molecule type: double-stranded DNA, one strand shown; sample: in vitro; tested at: not given; reading: higher = stronger binding; measurement: E-score
Target: Sal-like protein 4, full length isoform B (SALL4, Homo sapiens, UniProt Q9UJQ4-2, residues 1-616)
Setting: 8-mer, flanks averaged, mean of replicates
CTTTGGTA: -0.00312
AATCTAGC: -0.0547
GCCAGTGA: -0.141
AGGCGGTG: -0.311
GACGCGCA: -0.206
CACGTGTA: 0.00821
CATTATTC: 0.171
ACCGGGCC: -0.337
GTATTAAA: 0.368
ACGTAAGT: 0.108

Set 2 — technique: RNA Bind-n-Seq; molecule type: RNA; sample: in vitro; tested at: 365 nM; baseline: no-protein control; reading: higher = stronger binding; measurement: RBNS enrichment (R)
Target: RNA binding protein fox-1 homolog 2, RRM domain, GST-SBP tag (RBFOX2, Homo sapiens, UniProt O43251-10, residues 100-194)
Setting: natural RNA segment, single round, ends assumed
Shared flanks, not repeated: GGGAGUUCUACAGUCCGACGAUC … UGGAAUUCUCGGGUGCCAA
Residues (chain): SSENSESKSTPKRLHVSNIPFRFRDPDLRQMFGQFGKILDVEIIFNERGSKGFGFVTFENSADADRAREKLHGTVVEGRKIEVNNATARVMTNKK
AACCACAGAUGGGAAGACAGAGCUUACUCCAGCAUAUUUCUAAGCUGCAUCUCAGUGCCUGGGAGAGCCCUCUCGAAACAUCACUAACCUGUCUGUAUUGCCGAAUCUGG: 0.776
UUAUGAGAGCCCGUAGUUACAGUGUCCUCUAAUUUGAAAUCCAUAAGUUAACAAGUCUAUAUCAGGUGCAGCUGGCUUUGAUUAAAGGCCAUUUUUAAAACUUAAAAACU: 0.568
AGAAAACAGAAAGAAGCUACAACAUGGCUCUAGUGUUGCAAUGUUUUCUAUAAGCACACUGACCUUAUGGGGCCAUGUUAUUUUUAUAUGAUAAACGUCUUCCAUAGAAC: 0.367
GCCGAAUCCUUCCCUCCAGCCCGAGACUACAAGAAGAAACAGACUUUGGCCUGGUCCCAGGGGCCAGAGCUGGCAGUGGCUCCCAGAGCUCUGUCCAGCCACAAGUUUGA: 0.257
AUCAAGAGCAAAACUGCACAAACUUGCACAUUGGAAAGUGCAACAAGUUCCCGUGAUUGCAGUAAAAAUAUUUACUAUUCUAAAAAAAUGAGAAUUGAAGACUUAGCCAG: 0.731
UUUAAUAAGAAAAACUUGAAGUUUAGGAGCUUAAAAGACUUAGCCUGAGGCAGAAGGAGGUGAGCACUUAAUCCUUUGAGCCAUGCGGUCUCUUUUACAGUCUAGAAACU: 0.442
UAAGCAUGCAUACUUUAACUUCUAUAGUUUUCUCCUUUAGAGGGUCGUCUUCAGUUUUAGAGGUUUACUUCUCCCUUGCCUUUGACUCAUUGGACUAGUGCAGAGGCUUU: 5.47
ACUUCAUAUAUCUAUCAGGUAAUAUAGGCUUGAAAAUUGAUAUCCUGUGGUGCUAAAGUACAGUAGAAAGAUGUGUAUACGUUUUAUUUUAAAUUGUACGAAGGGGAAUU: 0.284

Set 3 — technique: RNA Bind-n-Seq; molecule type: RNA; sample: in vitro; tested at: 200 nM; setting: whole 134-nt RNA, ends assumed; with: 150 mM KCl; baseline: input library; reading: higher = stronger binding; measurement: log2 enrichment
Target: Fragile X messenger ribonucleoprotein 1, C-terminal low-complexity region (Fmr1, Mus musculus, UniProt P35922)
Shared flanks, not repeated: GGGAGUUCUACAGUCCGACGAUC … UGGAAUUCUCGGGUGUCAAGG
GCAGGAAGUAAAAACAAAUCGAAAUGCUUCGGAUAGUGGCAGGGGUGGGGGUUGCUAAGGAAAGGGUGGGAUGGGAGUGGGUAAAGAGUU: 0.0856
AGUCCUGUGCUACACAUCGUAUGUACCGAAUCGGGAGGGAAAAAAAGGGUUUUUGGGAAAGUAUUAUGUUACGCCGUUCGGAUCUGCACU: 0.229
UCCUGUGCUACACAUCGUAUGUACCGAAUCAAAUUUUUAAACCCCCCCAAACCCCCAAAAAAGUAUUAUGUUACGCCGUUCGGAUCUGCA: -0.0432
UCCUGUGCUACACAUCGUAUGUACCGAAUCGGGUUUUUUGGGGUUUUUUGGUUUUUUGGAAAGUAUUAUGUUACGCCGUUCGGAUCUGCA: 0.186
CAAGUCCUGUGCUACACAUCGUAUGUACCGAAUCGGGGAAAAGGAAAAGGAAAAGGAAAGUAUUAUGUUACGCCGUUCGGAUCUGCACUU: -0.449
GGUAGCAAGAGCUCCAGAGAGAAGUCGAGGAAGAGAGAGACGGGGUCAGAGAGAGCGCGCGGGCGUGCGAGCAGCGAAAGCGACAGGGGC: 0.394
UAACUUUAGAGGAGGAUCUGAUGGAUAUGACAGUGGACGUGGAUUUGGGGAUGGCUAUAAUGGGUAUGGAGGAGGACCUGGAGGUGGCAA: 0.26
UGGGAGGUGGAUUUUGUUUAUUUUUUUAGCUCAUUUCCAGGGGUGGGAAUUUUUUUAUAAUAUGUGUCAUGAAUAAAGUUGUUUUUGAAA: 0.366
AAGUCCUGUGCUACACAUCGUAUGUACCGAAUCGGGUUUUUGGGUGGGUUUUUGGGAAAGUAUUAUGUUACGCCGUUCGGAUCUGCACUU: 0.919

Further values, each from its own experiment
PhoQ, residues 284 288 289 292 302 303 ALVSVA — fold induction (PhoP, residues 12 14 15 18 19 AQALL (Escherichia coli, UniProt P23836); Sort-seq, item: YFP reporter; E. coli; PhoQ-PhoP variant library, with: 10 µM Mg2+; baseline: high Mg2+ state, higher = stronger signaling): 14.4

A few entries again (set 2):
AUCAAGAGCAAAACUGCACAAACUUGCACAUUGGAAAGUGCAACAAGUUCCCGUGAUUGCAGUAAAAAUAUUUACUAUUCUAAAAAAAUGAGAAUUGAAGACUUAGCCAG: 0.731
UUUAAUAAGAAAAACUUGAAGUUUAGGAGCUUAAAAGACUUAGCCUGAGGCAGAAGGAGGUGAGCACUUAAUCCUUUGAGCCAUGCGGUCUCUUUUACAGUCUAGAAACU: 0.442
UAAGCAUGCAUACUUUAACUUCUAUAGUUUUCUCCUUUAGAGGGUCGUCUUCAGUUUUAGAGGUUUACUUCUCCCUUGCCUUUGACUCAUUGGACUAGUGCAGAGGCUUU: 5.47
